# Experimental data from different studies.
# Each numbered part is a random draw from the data of one study; scales do not carry over between parts. Changes are numbered by the printed parent chain.

# Series 1
# Target: ABI1, truncated, D143A, DHFR fusion (Arabidopsis thaliana)
# Method: DHFR PCA, deep sequencing
# Medium: yeast
# Setting: methotrexate growth selection, single substitutions
# Together with: (+)-ABA 200 µM
# Baseline: wild-type fitted maximum
# Reading: higher = stronger binding
# Parent: PYL1, truncated, DHFR fusion (Arabidopsis thaliana); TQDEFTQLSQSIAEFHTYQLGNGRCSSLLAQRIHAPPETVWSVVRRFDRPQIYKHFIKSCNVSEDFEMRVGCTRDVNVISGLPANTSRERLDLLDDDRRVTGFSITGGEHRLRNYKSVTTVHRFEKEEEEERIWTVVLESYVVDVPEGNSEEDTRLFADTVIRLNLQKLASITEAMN; partner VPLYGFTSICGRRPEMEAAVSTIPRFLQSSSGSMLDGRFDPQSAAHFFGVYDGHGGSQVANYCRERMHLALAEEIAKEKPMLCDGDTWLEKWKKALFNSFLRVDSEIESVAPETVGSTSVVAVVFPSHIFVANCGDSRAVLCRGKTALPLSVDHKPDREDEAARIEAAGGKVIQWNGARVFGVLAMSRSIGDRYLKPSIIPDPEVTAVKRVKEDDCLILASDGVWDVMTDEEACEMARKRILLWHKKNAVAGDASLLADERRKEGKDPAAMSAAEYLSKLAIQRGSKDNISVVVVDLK
Variant,relative binding score
T119I,99.2%
E127W,91.4%
D96N,92.6%
L164D,24.1%
E64H,100%
N77D,104%
D48F,7.14%
D96A,50.6%
N85I,101%
L28A,67.6%
R24A,99.2%
I105T,76.7%
K126R,107%
I79H,106%
E152Y,90.9%
Q51M,94.5%
V136A,76.7%

# Series 2
# Target: Ras GTPase-activating protein-binding protein 1, RRM domain (G3BP1, Homo sapiens, UniProt Q13283)
# Sequence of UniProt Q13283 (whole entry, looked up): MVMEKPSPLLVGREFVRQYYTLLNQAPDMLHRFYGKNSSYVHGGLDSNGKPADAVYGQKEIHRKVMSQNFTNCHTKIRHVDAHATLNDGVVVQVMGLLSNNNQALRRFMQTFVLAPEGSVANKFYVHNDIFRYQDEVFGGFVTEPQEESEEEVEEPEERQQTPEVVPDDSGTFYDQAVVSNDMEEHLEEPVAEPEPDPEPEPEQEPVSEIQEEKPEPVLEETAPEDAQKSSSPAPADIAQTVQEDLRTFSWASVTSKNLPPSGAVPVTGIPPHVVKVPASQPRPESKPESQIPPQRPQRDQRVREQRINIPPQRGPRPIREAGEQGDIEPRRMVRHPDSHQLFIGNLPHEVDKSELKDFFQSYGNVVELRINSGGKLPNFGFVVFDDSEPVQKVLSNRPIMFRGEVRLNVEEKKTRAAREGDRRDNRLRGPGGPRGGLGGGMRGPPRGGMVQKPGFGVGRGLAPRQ
# Method: RNA Bind-n-Seq
# Form: RNA
# Medium: in vitro
# Concentration: 1 µM
# Setting: whole 134-nt RNA, ends assumed
# Together with: 150 mM KCl
# Baseline: input library
# Reading: higher = stronger binding
Oligonucleotide,log2 enrichment
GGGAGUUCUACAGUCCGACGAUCAAGUCCUGUGCUACACAUCGUAUGUACCGAAUCGGGAAAAGGGAAAAGGGAAAAGGGAAAGUAUUAUGUUACGCCGUUCGGAUCUGCACUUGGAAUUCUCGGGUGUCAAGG,0.381
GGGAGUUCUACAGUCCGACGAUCAGUCCUGUGCUACACAUCGUAUGUACCGAAUCGGGGAGGGGAAAAAGGGGUUUGGGGAAAGUAUUAUGUUACGCCGUUCGGAUCUGCACUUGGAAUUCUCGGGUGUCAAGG,0.94
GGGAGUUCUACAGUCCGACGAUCAAGUCCUGUGCUACACAUCGUAUGUACCGAAUCGGGAAAAAAAGGGUUUGGGUGGGAAAGUAUUAUGUUACGCCGUUCGGAUCUGCACUUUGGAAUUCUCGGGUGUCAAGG,0.769
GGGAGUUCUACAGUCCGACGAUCCACAGACAACACGCACCCACACAGACACAGAGGGAAGGGGUUGGGAUGGGGACAGGGUUCACAGCAGGGCGGGGUAGGACCCCAGCCCCUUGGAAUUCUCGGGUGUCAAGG,-0.1
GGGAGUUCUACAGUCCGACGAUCACCAUGCAGGUGGGCAUCUUUGGGAAGUGGGGCAAGGGGGGGAUUGGGAGGGGGGUAACACUUUGGGAACAGGUGGUCCCAGGUCGUUUCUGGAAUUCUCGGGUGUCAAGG,1.02
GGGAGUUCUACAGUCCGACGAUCAAGUCCUGUGCUACACAUCGUAUGUACCGAAUCAAAUUUAAACCCAAACCCCCAAAAAAGUAUUAUGUUACGCCGUUCGGAUCUGCACUUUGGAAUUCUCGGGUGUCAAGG,-0.185

# Series 3
# Target: Histone acetyltransferase KAT6A, winged helix 1, GST fusion (KAT6A, Homo sapiens, UniProt Q92794, residues 1-85)
# Method: protein binding microarray
# Form: double-stranded DNA, one strand shown
# Medium: in vitro
# Concentration: not given
# Setting: 8-mer, flanks averaged, mean of 2 arrays, mostly near background
# Baseline: not given
# Reading: higher = stronger binding
# Target sequence (chain): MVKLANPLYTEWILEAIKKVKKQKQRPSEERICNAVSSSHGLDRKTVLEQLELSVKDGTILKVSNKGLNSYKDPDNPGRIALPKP
Oligonucleotide,E-score
AGCGACAT,-0.00487
CCTTGGAG,-0.174
CGTGTGAA,-0.126
CGGCCTAG,0.15
ATTGACCC,-0.0119
AGCGTGTG,0.111
CAGTGTCG,-0.0104
ACCTGAGA,-0.224
AGCATGGG,-0.186
ATTACGTG,-0.0257
AAAACTAC,0.0947
AACTTATC,-0.0956
CCATCGAC,-0.0894
AAAGTTTA,-0.0846
ATGGATAG,-0.0847
ACGTCAAG,-0.124
AGGAGCGC,0.275
GCACGTAC,0.00802
GGACATCA,0.0175
CCTTTGAG,-0.215
CACCCTAA,-0.219
GACGCGGA,0.276
ATCAGGTA,-0.048
GATTTGGC,-0.18
ATAGCTGC,-0.193

# Series 4
# Target: PABPC1L2, full length, GST fusion (mouse, UniProt A0ABA7IW68)
# Method: RNAcompete
# Form: RNA
# Medium: in vitro
# Concentration: 20 nM
# Setting: 7-mer, probes averaged, single round
# Baseline: mean of 7-mers
# Reading: higher = stronger binding
# Residues (chain): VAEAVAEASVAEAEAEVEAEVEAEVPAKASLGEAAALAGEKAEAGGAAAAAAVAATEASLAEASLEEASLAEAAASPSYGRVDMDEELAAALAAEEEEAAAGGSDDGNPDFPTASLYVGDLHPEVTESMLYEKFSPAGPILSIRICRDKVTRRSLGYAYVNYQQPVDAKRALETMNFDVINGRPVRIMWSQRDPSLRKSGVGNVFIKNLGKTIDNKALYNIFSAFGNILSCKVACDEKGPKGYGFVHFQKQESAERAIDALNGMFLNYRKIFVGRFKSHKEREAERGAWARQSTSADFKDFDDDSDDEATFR
Oligonucleotide,7-mer Z-score
AGGUGUU,-0.235
AAGGAUU,-0.021
CACCCCC,-0.47
GUCACUA,-0.124
CUACCCC,-0.371
GUAAACA,1.35
CUCAUGC,-0.278
GGUCUAG,-0.168
AAUCCUG,-0.267
CAUCCAC,-0.113
AGCUAUA,-0.146
UCCUUUC,-0.458
GCAUUCC,-0.309
AACCAAA,1.65
AAGAUCU,0.095
GCUCAUC,-0.354
CUCAAGC,-0.278
AGUUCAG,-0.186
UCAUACU,-0.324
CUUGACC,-0.229
UGCGUAG,-0.00108
AGACGUU,-0.34

# Series 5
# Target: CCNB2, cyclin fold, Cln2 fusion (human)
# Method: yeast growth competition, sequencing
# Medium: yeast
# Setting: weak parent motif
# Baseline: not given
# Reading: higher = stronger binding
# Parent: ASZ1 docking peptide (human); GFGFLLFICKLTF; partner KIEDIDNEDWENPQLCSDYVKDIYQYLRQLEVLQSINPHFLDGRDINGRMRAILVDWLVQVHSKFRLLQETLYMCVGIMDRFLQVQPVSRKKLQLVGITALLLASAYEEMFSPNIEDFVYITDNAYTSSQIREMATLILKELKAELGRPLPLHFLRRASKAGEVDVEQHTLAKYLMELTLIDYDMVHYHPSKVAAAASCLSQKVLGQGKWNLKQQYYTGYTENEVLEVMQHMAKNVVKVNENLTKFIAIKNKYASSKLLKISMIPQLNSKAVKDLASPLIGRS
Variant,normalised enrichment score
G3A,0.808
L11A,0.544
L6A,-0.178
T12A,0.0846
F4A,0.297
I8A,0.269

# Series 6
# Target: UBE2L6 UBC core domain (UniProt O14933)
# Method: yeast two-hybrid
# Medium: yeast
# Setting: mostly zero background
# Baseline: not given
# Reading: higher = stronger interaction
# B1: CNOT4 RING domain (UniProt O95628); chain MSRSPDAKEDPVECPLCMEPLEIDDINFFPCTCGYQICRFCWHRIRTDENGLCPACRKPYPED
# B2: MKRN3 RING domain (UniProt Q13064); chain FAVQRGMDKVCGICMEVVYEKANPNDRRFGILSNCNHSFCIRCIRRWRSARQFENRIVKSCPQCRVTSELVIPSE
# B3: RNF182 RING domain (UniProt Q8N6D2); chain AESQASDELECKICYNRYNLKQRKPKVLECCHRVCAKCLYKIIDFGDSPQGVIVCPFCRFETCLPDDEV
# B4: HLTF RING domain (UniProt Q14527); chain LILSSGSDEECAICLDSLTVPVITHCAHVFCKPCICQVIQNEQPHAKCPLCRNDIHEDNLLE
# B5: MARCHF1 RING domain (UniProt Q8TCQ1); chain TAPRSQSRLSVCPSTQDICRICHCEGDEESPLITPCRCTGTLRFVHQSCLHQWIKSSDTRCCELCKYDFIMETKLKPLRKWE
# Residues (chain): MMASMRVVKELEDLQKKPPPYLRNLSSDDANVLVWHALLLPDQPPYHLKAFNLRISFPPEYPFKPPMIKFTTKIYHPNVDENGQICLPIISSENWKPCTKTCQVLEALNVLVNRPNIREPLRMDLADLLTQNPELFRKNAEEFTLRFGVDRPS
Molecule,lacZ reporter activity
B1 (CNOT4 RING domain),0
B2 (MKRN3 RING domain),0
EIKEYKARLTCPCCNTRKKDAVLTKCFHVFCFECVRGRYEARQRKCPKCNAAFGAHDFHR (RNF40 RING domain (UniProt O75150)),0
B3 (RNF182 RING domain),0
B4 (HLTF RING domain),0
B5 (MARCHF1 RING domain),0

# Series 7
# Target: Centromere-binding protein 1, full length, His-tagged (CBF1, Saccharomyces cerevisiae, UniProt P17106, residues 1-351)
# Sequence of UniProt P17106 (whole entry, looked up): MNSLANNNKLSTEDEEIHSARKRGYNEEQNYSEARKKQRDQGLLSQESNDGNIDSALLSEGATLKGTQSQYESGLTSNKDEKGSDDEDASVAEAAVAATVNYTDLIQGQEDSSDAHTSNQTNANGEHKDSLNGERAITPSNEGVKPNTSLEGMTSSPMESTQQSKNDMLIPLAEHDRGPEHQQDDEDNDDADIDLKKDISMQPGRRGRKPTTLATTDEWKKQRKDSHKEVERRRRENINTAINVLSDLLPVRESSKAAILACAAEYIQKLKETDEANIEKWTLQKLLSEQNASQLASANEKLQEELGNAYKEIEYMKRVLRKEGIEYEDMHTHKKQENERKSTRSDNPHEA
# Method: competition protein-binding microarray
# Form: double-stranded DNA, one strand shown
# Medium: in vitro
# Concentration: 2 µM
# Setting: whole 60-bp probe, lowest competitor level
# Together with: Pho4 competitor, 0.05 µM
# Reading: higher = stronger binding
Oligonucleotide,fluorescence intensity
CGTCCTAGTGATTGCAGGGTGGGTGCCATGAGGAAGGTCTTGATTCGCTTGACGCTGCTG,91.5 a.u.
CGTCCTAGTGATTGGTCGGTGGGTGCCATGAGGAAGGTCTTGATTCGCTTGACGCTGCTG,79 a.u.
GTTCCCATTGATTAGCACGTGAAAATCTTAGCGAGTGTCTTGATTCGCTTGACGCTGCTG,1620 a.u.
CAAGTGTTGTTGGTGCTCGTGGTAATGCAGCGACTTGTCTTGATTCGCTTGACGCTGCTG,96.1 a.u.
GGATTAATTGCGTATCAGCTGACAGAGGTAACAAAGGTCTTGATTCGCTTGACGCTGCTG,855 a.u.
TTCGGGTATCTTGTTTATGTGACGCTCTGACCCAGAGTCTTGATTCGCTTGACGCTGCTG,67.4 a.u.
ATAGCATCAACCGCACACATGATTAGGATGTAGACGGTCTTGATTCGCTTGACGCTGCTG,262 a.u.
CTAACGAAGGTTTGTCACGCGACTTACAAGCCAAGTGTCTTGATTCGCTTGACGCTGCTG,621 a.u.
GCATAGTCATATCACCACGTGGAACATCATGAAAAAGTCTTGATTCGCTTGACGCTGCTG,1230 a.u.
CACTGTTGGTTCGACACCGTGGGTAAAGATGACAGTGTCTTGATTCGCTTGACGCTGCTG,76.3 a.u.
AATCCGCGTAGCCATCACGTCGCGCAATGTGCGATAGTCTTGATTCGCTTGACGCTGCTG,94.8 a.u.
AAGTGTCCTGCATTCCATGTGAAAGTTAAATAATCTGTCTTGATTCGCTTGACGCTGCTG,118 a.u.
TTGGTACTTGTTCAACACGTTGCTTACGATCTTGGTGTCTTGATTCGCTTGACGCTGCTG,106 a.u.
CGGGGTTAAGTTTTTCACGTGGCATGCTTGCAGCAGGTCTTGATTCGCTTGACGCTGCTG,612 a.u.
CTTTCCCGATCTTGTCACCGAACTTTAGCACATTTGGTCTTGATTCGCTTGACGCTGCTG,73.1 a.u.
CTTCTGTAAATTTGAGGAGTGGGTGGACGCGCCCCGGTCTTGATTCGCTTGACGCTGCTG,94.8 a.u.
CGTTGGTGGTGCAAAGTCGTGCTTTAACCCATCGGGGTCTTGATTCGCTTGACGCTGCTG,66.6 a.u.

# For quick reference, copied from above (series 3):
Oligonucleotide,E-score
CGTGTGAA,-0.126
ACCTGAGA,-0.224
ATTGACCC,-0.0119
GATTTGGC,-0.18
AAAGTTTA,-0.0846
ATGGATAG,-0.0847
GCACGTAC,0.00802
CACCCTAA,-0.219
AGCGTGTG,0.111
CCATCGAC,-0.0894
